{"data": "Experimental data pooled from the literature", "organism": "Human betaherpesvirus 5", "read-out": "viral replication", "note": "± marks the error that the study gave."}
{"Compound": "O=c1c(O)c(-c2ccc(O)c(O)c2)oc2cc(O)cc(O)c12", "assay": "absorbance", "test system": "human Fibroblast", "conditions": "72 h", "endpoint": "IC50", "result": "13 µM"}
{"Compound": "O=C(NCc1ccc(F)cc1F)c1cn(C2CC2)cc(O)c1=O", "assay": "inhibitor", "conditions": "7 days", "endpoint": "EC50", "result": "4.8 µM"}
{"Compound": "Nc1ccn(C[C@@H](CO)OCP(=O)(O)O)c(=O)n1", "assay": "fluorescent focus reduction", "test system": "HFFF, Toledo GFP reporter", "conditions": "7 days", "endpoint": "IC50", "result": "0.2 ± 0.1 µM"}
{"Compound": "COCCNC(=O)c1nc(Cl)c2cccnc2c1O", "assay": "inhibitor", "test system": "HFF", "conditions": "10 µM", "endpoint": "inhibition", "result": "7.1%"}
{"Compound": "Cc1cc(CNC(=O)c2cn(Cc3ccc(F)cc3)cc(O)c2=O)ccc1F", "assay": "inhibitor", "conditions": "7 days", "endpoint": "EC50", "result": "1 µM"}
{"Compound": "O=c1cc(-c2ccccc2)oc2cc(O)c(O)c(O)c12", "assay": "absorbance", "test system": "human Fibroblast", "conditions": "72 h", "endpoint": "IC50", "result": "0.4 µM"}
{"Compound": "CC[C@H](CO)Nc1nc(NCc2ccccc2O)c2ncn(C(C)C)c2n1", "assay": "fluorescent focus reduction", "test system": "HFFF, Toledo GFP reporter", "conditions": "7 days", "endpoint": "IC50", "result": "3.2 ± 1.6 µM"}
{"Compound": "O=c1cc(-c2ccc(O)cc2)oc2cc(O)cc(O)c12", "assay": "absorbance", "test system": "human Fibroblast", "conditions": "72 h", "endpoint": "IC50", "result": "22 µM"}
{"Compound": "O=C(NCc1ccc(F)cc1)c1nc(Cl)c2cccnc2c1O", "assay": "inhibitor", "test system": "HFF", "conditions": "10 µM", "endpoint": "inhibition", "result": "32%"}
{"Compound": "O=C(NCc1ccccc1F)c1cn(Cc2ccc(F)cc2)cc(O)c1=O", "assay": "inhibitor", "conditions": "7 days", "endpoint": "EC50", "result": "1.6 µM"}
{"Compound": "COc1cccc(-c2nc(C(=O)NCc3ccc(C)cc3)c(O)c3ncccc23)c1", "assay": "inhibitor", "test system": "HFF", "conditions": "10 µM", "endpoint": "inhibition", "result": "47%"}
{"Compound": "O=C(NCc1cccc(F)c1)c1cn(Cc2ccc(F)cc2)cc(O)c1=O", "assay": "inhibitor", "conditions": "7 days", "endpoint": "EC50", "result": "0.97 µM"}
{"Compound": "O=c1c(-c2ccc(O)cc2)coc2cc(O)cc(O)c12", "assay": "absorbance", "test system": "human Fibroblast", "conditions": "72 h", "endpoint": "IC50", "result": "38 µM"}
{"Compound": "COC(=O)c1nc(Cl)c2cccnc2c1O", "assay": "inhibitor", "test system": "HFF", "conditions": "10 µM", "endpoint": "inhibition", "result": "31%"}
{"Compound": "O=c1cc(-c2ccc(O)c(O)c2)oc2cc(O)cc(O)c12", "assay": "absorbance", "test system": "human Fibroblast", "conditions": "72 h", "endpoint": "IC50", "result": "6 µM"}
{"Compound": "O=C(NCc1ccc(F)cc1F)c1c[nH]cc(O)c1=O", "assay": "inhibitor", "conditions": "7 days", "endpoint": "EC50", "result": "8 µM"}
{"Compound": "Cc1ccc(CNC(=O)c2nc(-c3ccccc3)c3cccnc3c2O)cc1", "assay": "inhibitor", "test system": "HFF", "conditions": "10 µM", "endpoint": "inhibition", "result": "23%"}
{"note": "A few entries again:"}
{"Compound": "O=C(NCc1ccc(F)cc1F)c1c[nH]cc(O)c1=O", "assay": "inhibitor", "conditions": "7 days", "endpoint": "EC50", "result": "8 µM"}
{"Compound": "Cc1ccc(CNC(=O)c2nc(-c3ccccc3)c3cccnc3c2O)cc1", "assay": "inhibitor", "test system": "HFF", "conditions": "10 µM", "endpoint": "inhibition", "result": "23%"}
